Assay results collected from several papers.
Each line is one published result; not all experiments were run side by side. Numbers after ± are the reported error.
had: had (Sphingobium sp. TCM1, UniProt A0A077JBW9)

Under “paw withdrawal threshold”, `CC(C)C[C@@H]1NC(=O)[C@H](CCCNC(=N)N)NC(=O)[C@@H]2CCCN2C(=O)[C@@H]2CSSC[C@H](NC(=O)CNC(=O)[C@@H]3CCCN3C(=O)[C@H](CCCCN)NC(=O)[C@H](CC(=O)O)NC(=O)[C@@H](NC(=O)CN)C(C)C)C(=O)N[C@@H](CCCNC(=N)N)C(=O)N[C@@H](Cc3ccc(O)cc3)C(=O)N[C@@H](CC(C)C)C(=O)N[C@@H](Cc3ccccc3)C(=O)NCC(=O)NCC(=O)N[C@H]3CSSC[C@H](NC(=O)CNC1=O)C(=O)N[C@@H](CCCCN)C(=O)NCC(=O)N[C@@H](CCCCN)C(=O)NCC(=O)N[C@@H](Cc1c[nH]cn1)C(=O)N[C@@H](CC(=O)O)C(=O)N[C@@H](Cc1ccc(O)cc1)C(=O)N[C@H](C(=O)N[C@@H](C)C(=O)N[C@@H](Cc1c[nH]c4ccccc14)C(=O)N[C@@H](CC(=O)O)C(=O)NCC(=O)N[C@H](C(=O)N[C@@H](Cc1ccccc1)C(=O)N[C@@H](CO)C(=O)N[C@@H](CC(=O)O)C(=O)O)[C@@H](C)O)CSSC[C@H](NC(=O)[C@H](CC(=O)O)NC(=O)[C@H](CC(=O)O)NC(=O)[C@H](CC(=O)O)NC(=O)[C@H](CO)NC(=O)[C@H](CCCCN)NC3=O)C(=O)N2` is recorded as 1.3 ± 0.2 g (electronic von Frey; adult mice; intraplantar, 0.06 nmol/paw).
`CC[C@H](C)[C@H](NC(=O)CNC(=O)[C@H](C)NC(=O)[C@@H]1CCCN1C(=O)CNC(=O)[C@H](C)NC(=O)[C@H](CCC(=O)O)NC(=O)[C@H](C)NC(=O)[C@H](CC(=O)O)NC(=O)[C@H](C)NC(=O)[C@H](CCC(=O)O)NC(=O)[C@H](C)NC(=O)[C@H](CCC(=O)O)NC(=O)[C@@H]1CCCN1C(=O)[C@H](CCC(=O)O)NC(=O)CNC(C)=O)C(=O)NCC(=O)N[C@@H](C)C(=O)N[C@H](C(=O)N[C@@H](CC(C)C)C(=O)N[C@@H](CCCCN)C(=O)N[C@H](C(=O)N[C@@H](CC(C)C)C(=O)N[C@H](C(=O)N[C@H](C(=O)NCC(=O)N[C@@H](CC(C)C)C(=O)N1CCC[C@H]1C(=O)N[C@@H](C)C(=O)N[C@@H](CC(C)C)C(=O)N[C@H](C(=O)N[C@@H](CO)C(=O)N[C@@H](Cc1c[nH]c2ccccc12)C(=O)N[C@H](C(=O)N[C@@H](CCCCN)C(=O)N[C@@H](CCCNC(=N)N)C(=O)N[C@@H](CCCCN)C(=O)N[C@@H](CCCNC(=N)N)C(=O)N[C@@H](CCC(N)=O)C(=O)N[C@@H](CCC(N)=O)C(N)=O)[C@@H](C)CC)[C@@H](C)CC)[C@@H](C)O)[C@@H](C)O)C(C)C)C(C)C` has an HD50 of 72.2 ± 3.6 µmol/L (human erythrocytes, washed; 1 h, 37 °C, 2% v/v RBC suspension).
`CC(C)C[C@H](NC(=O)[C@H](C)NC(=O)CNC(=O)[C@H](C)NC(=O)CNC(=O)[C@H](Cc1c[nH]cn1)NC(=O)[C@H](CCCCN)NC(=O)[C@H](CC(C)C)NC(=O)[C@H](C)NC(=O)[C@H](CCCCN)NC(=O)[C@H](CCCNC(=N)N)NC(=O)[C@@H](NC(=O)[C@H](CC(C)C)NC(=O)[C@H](CCCCN)NC(=O)[C@H](CCCCN)NC(=O)[C@H](CC(C)C)NC(=O)[C@H](CCCCN)NC(=O)[C@H](CCCCN)NC(=O)[C@H](CCCNC(=N)N)NC(=O)[C@H](Cc1c[nH]c2ccccc12)NC(=O)[C@H](CCCCN)NC(=O)[C@H](CCCNC(=N)N)NC(=O)[C@@H](N)CCCCN)C(C)C)C(=O)N[C@@H](CC(C)C)C(=O)N[C@@H](CO)C(N)=O` gave an EC50 of 74.5 µM (Drosophila melanogaster; calcium response, calcium imaging; class IV da neurons, ppk1.9-Gal4 UAS-GCaMP6f).
`CC[C@H](C)[C@H](NC(=O)[C@H](Cc1ccccc1)NC(=O)[C@H](CC(=O)O)NC(=O)[C@H](CCCCN)NC(=O)[C@H](C)NC(=O)[C@H](CCCCN)NC(=O)[C@H](CC(N)=O)NC(=O)[C@H](CC(C)C)NC(=O)[C@H](Cc1c[nH]c2ccccc12)NC(=O)[C@H](CCC(=O)O)NC(=O)[C@H](CCCCN)NC(=O)[C@@H](NC(=O)CNC(=O)[C@H](C)N)[C@@H](C)O)C(=O)N[C@@H](CCCCN)C(=O)N[C@@H](CCC(=O)O)C(=O)N[C@@H](CCCCN)C(=O)NCC(=O)N[C@@H](CC(C)C)C(=O)NCC(=O)N[C@@H](CCSC)C(=O)N[C@@H](CC(C)C)C(=O)N[C@@H](CCCNC(=N)N)C(=O)N[C@@H](C)C(=O)N[C@@H](C)C(=O)N[C@@H](C)C(=O)N[C@@H](CC(N)=O)C(=O)N[C@@H](C)C(=O)N[C@@H](C)C(=O)N[C@@H](CC(C)C)C(=O)N[C@@H](CC(N)=O)C(=O)O` has an LD50 of 16.2 ± 4.8 nmol/g (Lucilia cuprina; thorax injection, 24 h).
`CO[P@](=O)(Oc1ccccc1)Oc1ccc([N+](=O)[O-])cc1` gave a Km of 250 ± 70 µM (had; p-nitrophenyl substrate hydrolysis, substrate).
`CC[C@H](C)[C@H](NC(=O)[C@H](Cc1ccccc1)NC(=O)[C@H](CC(=O)O)NC(=O)[C@H](CCCCN)NC(=O)[C@H](C)NC(=O)[C@H](CCCCN)NC(=O)[C@H](CC(N)=O)NC(=O)[C@H](CC(C)C)NC(=O)[C@H](Cc1c[nH]c2ccccc12)NC(=O)[C@H](CCC(=O)O)NC(=O)[C@H](CCCCN)NC(=O)[C@@H](NC(=O)CN)[C@@H](C)O)C(=O)N[C@@H](CCCCN)C(=O)N[C@@H](CCC(=O)O)C(=O)N[C@@H](CCCCN)C(=O)NCC(=O)N[C@@H](CC(C)C)C(=O)NCC(=O)N[C@@H](CCSC)C(=O)N[C@@H](CC(C)C)C(=O)N[C@@H](CO)C(=O)N[C@@H](C)C(=O)N[C@@H](C)C(=O)N[C@@H](C)C(=O)N[C@@H](CC(N)=O)C(=O)N[C@@H](C)C(=O)N[C@@H](C)C(=O)N[C@@H](CC(C)C)C(=O)N[C@@H](CC(N)=O)C(=O)O` gave a PD50 of 12.1 ± 3.9 nmol/g (Lucilia cuprina; thorax injection, 1 h).
For `CC[C@H](C)[C@@H]([C@@H](CC(=O)N1CCC[C@H]1[C@H](OC)[C@@H](C)C(=O)N[C@H](C)[C@@H](O)c1ccccc1)OC)N(C)C(=O)[C@@H](NC(=O)[C@H](C(C)C)N(C)C(=O)OCc1ccc(NC(=O)[C@H](CCCNC(N)=O)NC(=O)[C@@H](NC(=O)CCCC(=O)NCCC(=O)N(C)CC(=O)N(C)CC(=O)N(C)CC(=O)N(C)CC(=O)N(C)CC(=O)N(C)CC(=O)N(C)CC(=O)N(C)CC(=O)N(C)CC(=O)N(C)CC(=O)N[C@H]2CSCCC(=O)N3CN4CN(C3)C(=O)CCSC[C@H](NC(=O)[C@@H](CC(=O)O)NC(=O)[C@H](Cc3cccc5ccccc35)NC(=O)[C@@H]3CCCN3C2=O)C(=O)N[C@@H](CCSC)C(=O)N[C@@H](CCCCNC(=N)N)C(=O)N[C@@H](CC(=O)O)C(=O)N[C@@H](Cc2c[nH]c3ccccc23)C(=O)N[C@@H](CO)C(=O)N[C@@H]([C@@H](C)O)C(=O)N2CCC[C@H]2C(=O)N2C[C@H](O)C[C@H]2C(=O)N[C@@H](Cc2c[nH]c3ccccc23)C(=O)N[C@H](C(N)=O)CSCCC4=O)C(C)C)cc1)C(C)C`, the fu was 0.207 (plasma protein binding; human plasma; 2 µM, 2.5 h, pH 7.4).
`CC[C@H](C)[C@H](NC(=O)[C@H](Cc1ccccc1)NC(=O)[C@H](CC(=O)O)NC(=O)[C@H](CCCCN)NC(=O)[C@H](C)NC(=O)[C@H](CCCCN)NC(=O)[C@H](CC(N)=O)NC(=O)[C@H](CC(C)C)NC(=O)[C@H](Cc1c[nH]c2ccccc12)NC(=O)[C@H](CCC(=O)O)NC(=O)[C@H](CCCCN)NC(=O)[C@@H](NC(=O)CNC(=O)[C@H](C)N)[C@@H](C)O)C(=O)N[C@@H](CCCCN)C(=O)N[C@@H](CCC(=O)O)C(=O)N[C@@H](CCCCN)C(=O)NCC(=O)N[C@@H](CC(C)C)C(=O)N[C@@H](CCC(=O)O)C(=O)N[C@@H](CCSC)C(=O)N[C@@H](CC(C)C)C(=O)N[C@@H](CO)C(=O)N[C@@H](C)C(=O)N[C@@H](C)C(=O)N[C@@H](C)C(=O)N[C@@H](CC(N)=O)C(=O)N[C@@H](C)C(=O)N[C@@H](C)C(=O)N[C@@H](CC(C)C)C(=O)N[C@@H](CC(N)=O)C(=O)O` gave a CC50 of over 250 µM (HEK293 cells; resazurin; 24 h).
`CO[P@@](=O)(Oc1ccc([N+](=O)[O-])cc1)OC(C)C` has a Km of 36 ± 6 µM (had; p-nitrophenyl substrate hydrolysis, substrate).

For quick reference, copied from above:
Under “paw withdrawal threshold”, `CC(C)C[C@@H]1NC(=O)[C@H](CCCNC(=N)N)NC(=O)[C@@H]2CCCN2C(=O)[C@@H]2CSSC[C@H](NC(=O)CNC(=O)[C@@H]3CCCN3C(=O)[C@H](CCCCN)NC(=O)[C@H](CC(=O)O)NC(=O)[C@@H](NC(=O)CN)C(C)C)C(=O)N[C@@H](CCCNC(=N)N)C(=O)N[C@@H](Cc3ccc(O)cc3)C(=O)N[C@@H](CC(C)C)C(=O)N[C@@H](Cc3ccccc3)C(=O)NCC(=O)NCC(=O)N[C@H]3CSSC[C@H](NC(=O)CNC1=O)C(=O)N[C@@H](CCCCN)C(=O)NCC(=O)N[C@@H](CCCCN)C(=O)NCC(=O)N[C@@H](Cc1c[nH]cn1)C(=O)N[C@@H](CC(=O)O)C(=O)N[C@@H](Cc1ccc(O)cc1)C(=O)N[C@H](C(=O)N[C@@H](C)C(=O)N[C@@H](Cc1c[nH]c4ccccc14)C(=O)N[C@@H](CC(=O)O)C(=O)NCC(=O)N[C@H](C(=O)N[C@@H](Cc1ccccc1)C(=O)N[C@@H](CO)C(=O)N[C@@H](CC(=O)O)C(=O)O)[C@@H](C)O)CSSC[C@H](NC(=O)[C@H](CC(=O)O)NC(=O)[C@H](CC(=O)O)NC(=O)[C@H](CC(=O)O)NC(=O)[C@H](CO)NC(=O)[C@H](CCCCN)NC3=O)C(=O)N2` is recorded as 1.3 ± 0.2 g (electronic von Frey; adult mice; intraplantar, 0.06 nmol/paw).
